Results pooled from the literature.
Protocols differ between the studies behind these lines. Numbers after ± are the reported error.
cathepsin H: cathepsin H (Capra hircus, UniProt A0A452G5L2)
Nos1: Nitric oxide synthase 1 (Nos1, Rattus norvegicus, UniProt P29476)

SMILES | tested on | test | system | setting | quantity | value
NC(=O)N/N=C(\C=C\c1cccc([N+](=O)[O-])c1)c1ccccc1 | cathepsin H | competitive inhibitor, Lineweaver-Burk plot | goat liver enzyme | pH 7.0, added: Leu-βNA substrate | Ki | 33000 ± 100 nM
CCCCCCSC[C@H]1CN(Cc2c[nH]c3c(N)ncnc23)C[C@@H]1O | Aminodeoxyfutalosine nucleosidase (Helicobacter pylori, UniProt Q9ZMY2) | enzyme activity, inhibitor | – | slow-onset equilibrium | Ki | 0.005 ± 0.002 nM
O=S(=O)(NCc1cn(CB(O)O)nn1)c1ccc(-c2nnn[nH]2)cc1 | Beta-lactamase ADC-7 (Acinetobacter baumannii, UniProt Q6DRA1) | enzyme activity, inhibitor | – | added: nitrocefin | Ki | 210 ± 30 nM
CC(=O)N[C@@H](CC(C)C)C(=O)N[C@@H](CC(=O)O)C(=O)N[C@H](C(=O)N1CCC[C@H]1C(=O)N[C@H](C=O)CC(=O)O)C(C)C | Caspase-6 (CASP6, Homo sapiens, UniProt P55212) | enzyme activity, inhibitor, fluorescence | – | pH 7 | Ki | 26900 nM
COc1cc(CNC(=O)C[C@H](C)CCC=C(C)C)ccc1OCc1cn(-c2ccc(C#N)cc2)nn1 | HOP-92 | SRB | – | 10 µM, 48 h | growth percent | 65.2%
CC(C)OC(=O)C(CS)N1C(=O)c2ccc(N(C)C)cc2C1=O (stereo not drawn) | Metallo-beta-lactamase type 2 (Serratia marcescens, UniProt P52699) | enzyme activity, inhibitor | – | Km 4.8 µM, added: chromacef 25 µM | Ki | 5.6 ± 1 nM
COc1cc(Cc2cnc(N)nc2N)cc(/C=C/C(=O)N2N=Cc3ccccc3C2CC(C)C)c1OC (stereo not drawn) | Dihydrofolate reductase (Enterococcus faecalis, UniProt Q834R2) | enzyme activity, inhibitor | – | added: dihydrofolate (Km 10.9 µM) | Ki | 3.5 nM
Cc1cc(N)nc(CC2CNCC2OCCNCC(F)(F)c2cccc(F)c2)c1 (racemic) | Nos1 | enzyme activity, inhibitor, hemoglobin capture | – | – | Ki | 80 nM
O=C(c1ccc(F)cc1)C1CCN(C2Cc3c(O)cccc3CC2O)CC1 (racemic) | sigma-1 receptor | radioligand binding | – | added: [3H]pentazocine | Ki | 8640 ± 974 nM
NC(=O)N/N=C(/C=C/c1cccc(Cl)c1)c1ccccc1 | cathepsin H | competitive inhibitor, Lineweaver-Burk plot | goat liver enzyme | pH 7.0, added: Leu-βNA substrate | Ki | 96000 ± 600 nM
N=C(N)NCCC[C@@H]1NC(=O)[C@H](CCCCNC(=O)CC[C@H](NC(=O)CC[C@H](NC(=O)CN2CCN(CC(=O)O)CCN(CC(=O)O)CCN(CC(=O)O)CC2)C(=O)N[C@@H](CCC(=O)NCCCC[C@@H]2NC(=O)[C@@H](Cc3ccccc3)NC(=O)[C@H](CC(=O)O)NC(=O)CNC(=O)[C@H](CCCNC(=N)N)NC2=O)C(=O)NCCCC[C@@H]2NC(=O)[C@@H](Cc3ccccc3)NC(=O)[C@H](CC(=O)O)NC(=O)CNC(=O)[C@H](CCCNC(=N)N)NC2=O)C(=O)NCCCC[C@@H]2NC(=O)[C@@H](Cc3ccccc3)NC(=O)[C@H](CC(=O)O)NC(=O)CNC(=O)[C@H](CCCNC(=N)N)NC2=O)NC(=O)[C@@H](Cc2ccccc2)NC(=O)[C@H](CC(=O)O)NC(=O)CNC1=O [indium-111 labelled] | – | – | female athymic nu/nu mice, kidney | intravenous, 72 h | tissue uptake | 3.48 ± 1.1 %ID/g
Cc1cc(N)nc(C[C@@H]2CNC[C@@H]2OCCC/C=C/c2cccc(F)c2)c1 | Nos1 | enzyme activity, inhibitor | – | pH 7.4 | Ki | 637 nM
Cc1ccc(-c2nc3ccccc3[nH]2)cc1NC(=O)COc1ccccc1Cl | Protoporphyrinogen oxidase (PPOX, Homo sapiens, UniProt P50336) | enzyme activity, inhibitor, fluorescence | – | – | Ki | > 250000 nM
C#CCOC(=O)[C@]1(C)C=C(C(=O)OC(C)(C)C)C(=O)CC1 | Mitogen-activated protein kinase 14 (MAPK14, Homo sapiens, UniProt Q16539) | ligand displacement, FP | – | – | Ki | 800 nM
COc1cc(CNC(=O)C[C@H](C)CCC=C(C)C)ccc1OCc1cn(-c2ccc(F)cc2)nn1 | NCI-H322M | SRB | – | 10 µM, 48 h | growth percent | 105%
CNC(=O)C1CCN(c2cc(C)ccc2NC(=O)c2ccc(-c3cc(O)ccc3C)c(C)c2)CC1 | Ephrin type-A receptor 4 (EPHA4, Homo sapiens, UniProt P54764) | enzyme activity, inhibitor | – | – | Ki | 5 nM
CCCCCCCCCC[C@@H]1O[C@@H]1CCCCC(C)C | pheromone-binding protein 1 (Lymantria dispar, UniProt O16105) | binding, competitive fluorescence binding | – | pH 5.5, pheromone-binding protein 1, added: 1-NPN probe | Ki | 5320 ± 110 nM
Nc1nc2c(ncn2[C@@H]2O[C@H](COP(=O)(O)OP(=O)(O)O[C@H]3O[C@@H](CNC(=O)CCc4ccccc4)[C@@H](O)[C@@H](O)[C@@H]3F)[C@@H](O)[C@H]2O)c(=O)[nH]1 | FUT3 (Homo sapiens, UniProt P21217) | enzyme activity, inhibitor | – | – | Ki | 8800 nM

Repeated from above:
SMILES | tested on | test | system | setting | quantity | value
C#CCOC(=O)[C@]1(C)C=C(C(=O)OC(C)(C)C)C(=O)CC1 | Mitogen-activated protein kinase 14 (MAPK14, Homo sapiens, UniProt Q16539) | ligand displacement, FP | – | – | Ki | 800 nM
